Measurements from different studies.
Every numbered part comes from another study and shows a few of its results, in no order.

Series 1 — technique: protein binding microarray; molecule type: double-stranded DNA, one strand shown; sample: in vitro; concentration: not given; baseline: not given; reading: higher = stronger binding
Target: Histone acetyltransferase KAT6A, winged helix 1, GST fusion (KAT6A, Homo sapiens, UniProt Q92794, residues 1-85)
Notes: 8-mer, flanks averaged, mean of 2 arrays, mostly near background
Target sequence (chain): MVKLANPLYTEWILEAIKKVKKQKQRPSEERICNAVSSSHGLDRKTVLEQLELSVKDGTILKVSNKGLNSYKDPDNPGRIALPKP
Sequence	E-score
ATTTTGGC	0.0124
ATAAACGG	0.153
ATTACGGC	0.356
CCCTCTAG	-0.121
CCACACGA	-0.0735
CTACCTCC	-0.108
CTACCTAC	0.0185
ATGAAGAA	-0.119
AATCCATT	-0.2
GACAGGCA	-0.161
ACCAAATC	-0.208
CTCTTAAG	-0.131
AAGCGGCC	0.338
AGGCCAGG	0.0234
GCATCTAC	0.0873
ATTTAGAA	-0.0917
GTAAATTA	0.0372
CCGCCCAA	0.121
CCCGAGGA	0.00524
CAAATCGG	0.111
AAGCTTCG	-0.144
GATTTCCA	-0.113
ATAGCTAA	-0.0978
ATGAATCG	0.0335
TAATCGGA	-0.0401

Series 2 — technique: universal PBM; molecule type: double-stranded DNA, one strand shown; sample: in vitro; concentration: 600 nM; reading: higher = stronger binding
Target: Sal-like protein 4, full length isoform A (SALL4, Homo sapiens, UniProt Q9UJQ4, residues 1-1053)
UniProt Q9UJQ4, sequence (whole entry, looked up): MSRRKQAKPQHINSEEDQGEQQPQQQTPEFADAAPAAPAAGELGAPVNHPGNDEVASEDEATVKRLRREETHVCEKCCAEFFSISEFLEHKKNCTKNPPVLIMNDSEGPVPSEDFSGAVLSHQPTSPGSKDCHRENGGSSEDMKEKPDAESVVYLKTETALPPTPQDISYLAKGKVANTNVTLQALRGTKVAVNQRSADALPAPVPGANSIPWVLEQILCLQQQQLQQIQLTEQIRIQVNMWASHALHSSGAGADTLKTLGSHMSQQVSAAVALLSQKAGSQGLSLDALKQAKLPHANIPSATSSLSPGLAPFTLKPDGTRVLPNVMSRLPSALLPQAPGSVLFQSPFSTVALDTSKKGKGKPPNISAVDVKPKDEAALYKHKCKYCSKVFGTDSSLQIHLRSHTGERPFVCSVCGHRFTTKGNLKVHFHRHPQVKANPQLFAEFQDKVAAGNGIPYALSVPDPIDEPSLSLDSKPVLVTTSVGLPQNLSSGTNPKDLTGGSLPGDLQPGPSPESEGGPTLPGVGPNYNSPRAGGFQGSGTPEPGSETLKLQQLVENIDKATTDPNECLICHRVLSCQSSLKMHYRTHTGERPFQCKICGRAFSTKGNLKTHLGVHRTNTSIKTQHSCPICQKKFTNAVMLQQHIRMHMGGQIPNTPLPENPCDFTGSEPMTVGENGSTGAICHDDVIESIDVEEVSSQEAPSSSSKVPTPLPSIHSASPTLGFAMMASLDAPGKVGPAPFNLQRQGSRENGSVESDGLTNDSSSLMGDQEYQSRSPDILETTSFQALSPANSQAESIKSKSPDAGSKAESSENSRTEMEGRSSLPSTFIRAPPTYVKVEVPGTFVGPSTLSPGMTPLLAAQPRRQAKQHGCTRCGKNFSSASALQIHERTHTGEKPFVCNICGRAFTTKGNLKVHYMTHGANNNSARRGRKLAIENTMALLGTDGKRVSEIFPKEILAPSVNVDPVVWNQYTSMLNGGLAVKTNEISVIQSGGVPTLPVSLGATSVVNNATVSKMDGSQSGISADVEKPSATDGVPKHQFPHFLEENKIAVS
Notes: 8-mer, flanks averaged, mean of replicates
Sequence	E-score
CGGTTCGC	-0.245
GTCCCCCA	-0.278
AGTTCCCG	-0.278
CTCGATTC	-0.0349
ACAAAGGC	-0.151
CAACGGCA	-0.169
AAGAGAAA	0.039
GCCGATGA	-0.249
GCACTGAA	0.0135
CGCTGGTA	-0.0563
CTCCAATA	0.222
CACTCTAA	0.114
CCTGTGCG	-0.168
CGGCCTAC	-0.196
AAGACGTG	-0.0806
GACCATCC	-0.0661
GCGACCGC	-0.293
GAACCCCC	-0.419
CACGCCCG	-0.313
CGTCTGAA	-0.063

Series 3 — technique: RNA Bind-n-Seq; molecule type: RNA; sample: in vitro; concentration: 365 nM; baseline: no-protein control; reading: higher = stronger binding
Target: RNA binding protein fox-1 homolog 2, RRM domain, GST-SBP tag (RBFOX2, Homo sapiens, UniProt O43251-10, residues 100-194)
Notes: natural RNA segment, single round, ends assumed
Construct (chain): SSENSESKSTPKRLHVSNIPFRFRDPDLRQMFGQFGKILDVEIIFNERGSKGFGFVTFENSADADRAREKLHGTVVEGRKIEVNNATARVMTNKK
Sequence	RBNS enrichment (R)
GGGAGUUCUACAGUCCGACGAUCUGUUCCGUGGGGUUACAUUUGCUUAAGGAUACACCUUACUUUUUAAUAAAUGGUUUUGAUUGUUCAAACUAAUUUCUAGCUACCUGAAUAAUUCACAGAUUAUAGCUUAUUGGAAUUCUCGGGUGCCAA	0.419
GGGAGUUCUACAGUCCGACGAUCAGGAUCCCAGCCCUAGAGCUGCAGGGCUGCCCUGUGGGACAGCGCAGCCUAAGCUGAUUUGGAUCUGGGUUUCUCCUCCAGGUAGGGUUGUUUUGUUUCCUUCGCCCUUUUGGAAUUCUCGGGUGCCAA	0.278
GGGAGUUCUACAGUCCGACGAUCGCUGUUUCACAAUACCUCAUGCUUCACUUAGCCAUGGUGGACCCAGCGGGCAGGUUCUGCCUGCUUUGGCGGGCAGACACGCGGGCGCGAUCCCACACAGGCUGGCGGGGUGGAAUUCUCGGGUGCCAA	0.249
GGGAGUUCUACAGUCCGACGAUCGGAGCAUUUUUUUACAAUUUGGAUCUCUGCCAGUAUUGUUAAAAUUUUAUUAAAAUCAUCCAGCACCAAGACGUGUUUGCUUUUAUAUUUAUUCUAUAUGCCCAGCUCUGUGGAAUUCUCGGGUGCCAA	0.372
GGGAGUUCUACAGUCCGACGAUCACUGUAGAGAAUCUUCUGUUUAGUCCGUGCUUUUUAUGUAGAAUUGGUUUUAUCUAAUAGUUUUACUAUGGAAAUCGCCUUUUGAUAUUAAAGCCAGAUUUUAGAGGUUUUGGAAUUCUCGGGUGCCAA	0.236
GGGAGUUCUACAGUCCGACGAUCCCAGACAGCCCCAAGCUUCUGAGUCUAGAUACAGAAGCCCAUGUCUUCUGCUGUUCUUCACUUCUGGGAAAUUGAAGUGUCUUCUGUUCCCAAGGAAGCUCCUUCCUGUUUGGAAUUCUCGGGUGCCAA	0.257
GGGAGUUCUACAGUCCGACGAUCGCAGGGGCCAUCCACCCGCCCCAGGACCAGCCCUCAGGGAGGGGAAACGGCCGAGAGCCCCCCCCCGGAGGCCCGAGGGGCCGGGGUGUGGAUGCGGACCGUGGCCAGGCUGGAAUUCUCGGGUGCCAA	0.422
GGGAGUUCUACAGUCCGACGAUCCAGUCUUGUGAGAUGGGGGCACAUAGCACUGGGGAAAGCAGAACUCCAUUCUCACCUCUAUUUUGAGCUUCAGUGCUUUAUUUCAGUAUGAGGAAAAACAACAACAAACUUGGAAUUCUCGGGUGCCAA	0.641
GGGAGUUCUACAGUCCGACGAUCGCAGCCUGUCUAGUUUGUAGAUCCCCUUGGUUGCUGGAUAAAGGAUGAUAAUAAAGUGUCUUUCUCUAAACUUGCUUGUCUCCUCUGUUUUAGAAACAUGGGUGGGUAGCUGGAAUUCUCGGGUGCCAA	0.392
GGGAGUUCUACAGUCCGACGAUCCAGGCCAGUGUUGAAACUUUCACACCCUGAGUGACUACGGGAGAACUGCCAGCUUCCGCUUCUCUGUGCUCUGUGUCUGCGGUUUACAUAUAGAUCGUCCCCCUGGAAACUGGAAUUCUCGGGUGCCAA	0.386
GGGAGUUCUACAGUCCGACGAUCCUCCGUGCAGGAGGCCCUUCAUUAUUGCUGCAGAAGACAGAAGCCUGGCUGAGUCACUCUCCACGUCUAUCCUGAAAUCACUCAAUGCUUCUGCCGGGUUUUUGUACAUGUGGAAUUCUCGGGUGCCAA	0.362
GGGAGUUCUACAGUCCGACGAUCCGAGUGUUUGAGGAAGACCCAGGCUCAGACCCACAGCAGCCCACCUUCUCUCUGACAGCCCAUCUUCGUCAGGCCCAUUCCCAGGAUGUCAACUGUGUGGCUUGGAAUCCUGGAAUUCUCGGGUGCCAA	0.672

Series 4 — technique: protein-binding microarray; molecule type: double-stranded DNA, one strand shown; sample: in vitro; concentration: 0.8 µM; notes: whole 60-bp probe, no competitor; reading: higher = stronger binding
Target: Centromere-binding protein 1, full length, N-terminal tag (CBF1, Saccharomyces cerevisiae, UniProt P17106, residues 1-351)
UniProt P17106, sequence (whole entry, looked up): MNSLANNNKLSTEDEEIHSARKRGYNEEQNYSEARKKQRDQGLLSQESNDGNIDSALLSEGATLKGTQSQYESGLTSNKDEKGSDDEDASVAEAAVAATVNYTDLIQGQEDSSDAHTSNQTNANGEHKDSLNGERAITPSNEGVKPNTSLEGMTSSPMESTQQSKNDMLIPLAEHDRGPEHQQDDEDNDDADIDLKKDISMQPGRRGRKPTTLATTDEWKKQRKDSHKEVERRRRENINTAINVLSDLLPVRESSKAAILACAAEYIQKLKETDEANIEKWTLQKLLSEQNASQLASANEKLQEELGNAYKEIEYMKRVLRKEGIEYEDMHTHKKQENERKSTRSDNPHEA
Sequence	fluorescence intensity
GAAAAACGCGGTAGTAACGTGGGGTACTTTAAATAGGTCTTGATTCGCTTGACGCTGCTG	596 a.u.
GAATAGAGTCACTCCCCCGTGTGTTCGGTCCGGTAGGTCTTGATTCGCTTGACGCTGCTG	626 a.u.
GAAGATATAGAAGAAAAGCTGACGAAAAAAGAATAGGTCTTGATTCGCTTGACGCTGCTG	533 a.u.
GAATTTCTTTTTCACCACGTTAACGAAACTTTTTAGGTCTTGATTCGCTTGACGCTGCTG	607 a.u.
CTAGGAAAAGAAGATGGTGACATATGCTTAGACTTCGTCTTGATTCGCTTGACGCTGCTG	511 a.u.
GAACTCCTGAGACATCAGACCAACGTGTAGAAATAGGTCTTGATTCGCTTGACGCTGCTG	670 a.u.
CTAAGAAGTGCTTGCCATGTGCTTTGAAAACTTTTCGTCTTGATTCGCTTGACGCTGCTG	807 a.u.
GAATGCTTTTCAAATCACGAACGCAATCAGTACTAGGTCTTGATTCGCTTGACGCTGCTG	656 a.u.
CTAGGCTCTTGGCATGACGGGAGGCAGGACAGCTTCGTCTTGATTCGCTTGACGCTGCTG	507 a.u.
GAATTTTTCTTTGCTGATGGCACTCAAGTCTAATAGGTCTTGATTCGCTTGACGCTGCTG	510 a.u.
GAATAGAAACATTATCACGCACTGCGTTTTGCTTAGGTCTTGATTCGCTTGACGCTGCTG	604 a.u.
CTACAGTTTGGCTTACACATGATGGTTGGAATATTCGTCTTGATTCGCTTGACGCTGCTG	631 a.u.
TGTACGAAGCTATGTCATGTGGATATAGTAGTTAGGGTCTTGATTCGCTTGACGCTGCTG	1020 a.u.
GAAACGAAACTACCCCACGTTTCGATTTTTGCCTAGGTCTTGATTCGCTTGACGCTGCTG	576 a.u.
GAATCGGGGATCCACGTGATGGCTTTTTGATCATAGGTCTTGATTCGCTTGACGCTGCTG	8620 a.u.
GAAAATAGACATATTCACGTGTATGCAAGGGCATAGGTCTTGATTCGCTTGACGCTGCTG	2820 a.u.

Series 5 — technique: RNA Bind-n-Seq; molecule type: RNA; sample: in vitro; concentration: 100 nM; baseline: input RNA pool; reading: higher = stronger binding
Target: RING finger protein unkempt homolog, zinc fingers 1-6, SBP tag (UNK, Homo sapiens, UniProt Q9C0B0, residues 30-357)
UniProt Q9C0B0, sequence (30-357, looked up): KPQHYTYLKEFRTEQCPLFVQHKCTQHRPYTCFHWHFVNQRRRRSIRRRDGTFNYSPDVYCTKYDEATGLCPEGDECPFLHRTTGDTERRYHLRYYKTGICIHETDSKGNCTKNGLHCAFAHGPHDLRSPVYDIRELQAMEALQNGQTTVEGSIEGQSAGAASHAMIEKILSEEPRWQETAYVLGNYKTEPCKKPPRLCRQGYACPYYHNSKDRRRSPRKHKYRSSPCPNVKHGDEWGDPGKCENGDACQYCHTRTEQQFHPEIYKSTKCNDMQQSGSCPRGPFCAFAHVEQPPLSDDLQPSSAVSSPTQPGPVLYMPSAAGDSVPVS
Notes: RNA with constant flanks, vertebrate orthologous sites, ends assumed
Sequence	bound/input enrichment [ratio]
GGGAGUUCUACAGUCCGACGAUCUGCAUUAUUUGACAAGAGUCAAAGUGACAGAGUUUGAAGAUAUUAAAUCAGGUUACAGAAUAGAUUUUUAUUUCGAUGAAAACCCUCACUUCGAAGAUAAAGUUCUCUCCAAAGAAUUUCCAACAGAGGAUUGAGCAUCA	0.325
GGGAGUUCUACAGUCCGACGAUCCUCUUAAUCCCAUCUCCUCUGUUUCAUAGUGCCGAAGUAUUCUCUUCAAGUUAAAUCUUUUUAGCGAACUUAUUCUAAUUCUAGAGAAACUUCCAAUGUGGAUACUGUGAGCUACAUGGACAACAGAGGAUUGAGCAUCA	1.11
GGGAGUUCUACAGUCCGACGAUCCACAUCUGGUGAUAUUUGGCCUGGCCUUUCUGCUUACGAUAAUAGUCCCAGAUCACCCCAUAGUCCUUCACCUAUUGCUACACCACCUAGUCAGAGUUCAUCAUGCUCUGAUGCCCCCAUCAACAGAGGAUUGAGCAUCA	0.924
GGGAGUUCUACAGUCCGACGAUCCAGCAGAUUCUCUCAUAGGGAGAGCGGCACAUAUUGCUGUUCUUGAUUCAGAAAUAUUUUUAGAAAAAUUCUUUCUUGUUGCUGCCCUAAAAUAUUUUCAGUAGAGAAAAGCAUUAUAAGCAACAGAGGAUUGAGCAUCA	0.425
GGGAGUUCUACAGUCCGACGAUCAAAACUGCUGUGUGAAAUCUUUCCAGAGAAGUGUCACCGUAUAAAUAUUAUCAAAUAAUUUAGCUAGAUUCUUAAGUAUUAAAUUAUAUGUCAAGCAUUUAAAGUGAAUUUGAAAUGAAACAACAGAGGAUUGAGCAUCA	0.737
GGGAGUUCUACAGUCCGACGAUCUAAGAAUUGGAAGAAUUGUAUAGGAGGCAGUAGUCGAAAAGUAGAAGCAGUUUGGAAGAGUAGUUACAAAUAUCAAGAGCCAGGCGGCUAAAAGGUGGAGCUAUAGGUCAUUGAAGCUCACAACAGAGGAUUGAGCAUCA	0.982
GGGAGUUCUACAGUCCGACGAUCCAACUCCAUGGUGGAGGGCUCCGAGCUCAAGAAGGUCCGCUCCAACUCCAGAAUCUACCACCGCUAUUUCCUCCUGGACGCCGACAUGCAGAGCCUGAGGUGGGAGCCGUCCAAGAAGGACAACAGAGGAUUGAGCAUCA	0.425
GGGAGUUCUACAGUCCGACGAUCUUUUUAUUGAUCAGGUCUGUAAAUGUGUACUAAAAAAUCAGAGUUUAUUUAUAAACAGAAUAUUUUAUUUAAAGAGAAGGUCUUUUCCUCAUUGCUAUCAUGGUAUGCAUUAAUUCCAUUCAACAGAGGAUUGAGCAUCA	0.181
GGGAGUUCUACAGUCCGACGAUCACUGAAAAUGACCUGCUCCGCUAAAAAGUGAAAAUAGUCCCCAAGUAUGAAACUCCUUAAUAACUAUUUUUGAAAUUAAAAAGUUUAAAUUUUGUACACUAUUGCCAGUACACAACUCUACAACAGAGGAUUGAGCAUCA	1.47
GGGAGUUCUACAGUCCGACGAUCUGGGUUACUCCUAUUAUUAUCAAGUAGCUGGAAUUGUGAAGGUUGGAGUAGUUAGAUCUUUAGCUUUUAUUCAUUAUUUUUUGUAUUACUCUCCAUGUGUAUAAAUUAUUGAUCAUGUUGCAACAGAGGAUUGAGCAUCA	4.22
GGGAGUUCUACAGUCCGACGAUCAAGUAUCCCAGUUUACUGUGUUGAGUUGGCAUUGUACAGAAAUUAACAGCCAUAUUGGUCUAGAAACGUUAAACUUAAUUUUUUUCCAUUUGUACAGGGGUAACACACUGUAUUAAAUAUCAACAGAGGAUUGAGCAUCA	0.577

Further values, each from its own experiment
Sequence	organism	test	system	setting	scale	measurement	result
LLRRLQDVANDRG	Saccharomyces cerevisiae	peptide binding, yeast competitive growth sequencing	peptide, cyclin E2-Cln2 fusion	library 2	direction not given	enrichment score	-1

A few entries again (series 2):
Sequence	E-score
GTCCCCCA	-0.278
AGTTCCCG	-0.278
CTCGATTC	-0.0349
ACAAAGGC	-0.151
CAACGGCA	-0.169
AAGAGAAA	0.039
GCCGATGA	-0.249
GCACTGAA	0.0135
CGCTGGTA	-0.0563
CTCCAATA	0.222
CACTCTAA	0.114
CCTGTGCG	-0.168
CGGCCTAC	-0.196
